Measurements collected from several papers.
Lines come from different studies, so protocols differ. “And” joins repeats or separate records; there may be more than shown. ± marks the error that the study gave.
Sequence of UniProt P42866 (whole entry, looked up): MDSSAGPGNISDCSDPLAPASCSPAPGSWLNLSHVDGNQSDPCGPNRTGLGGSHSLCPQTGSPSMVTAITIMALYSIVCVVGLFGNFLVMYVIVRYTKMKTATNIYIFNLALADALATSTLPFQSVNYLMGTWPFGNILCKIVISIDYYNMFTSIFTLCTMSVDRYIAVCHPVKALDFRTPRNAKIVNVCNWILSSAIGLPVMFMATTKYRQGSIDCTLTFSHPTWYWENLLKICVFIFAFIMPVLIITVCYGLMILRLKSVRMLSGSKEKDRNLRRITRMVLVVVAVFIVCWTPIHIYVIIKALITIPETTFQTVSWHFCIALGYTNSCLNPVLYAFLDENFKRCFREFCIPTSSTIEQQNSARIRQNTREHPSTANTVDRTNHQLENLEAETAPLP
Sequence of UniProt P0A0C1 (whole entry, looked up): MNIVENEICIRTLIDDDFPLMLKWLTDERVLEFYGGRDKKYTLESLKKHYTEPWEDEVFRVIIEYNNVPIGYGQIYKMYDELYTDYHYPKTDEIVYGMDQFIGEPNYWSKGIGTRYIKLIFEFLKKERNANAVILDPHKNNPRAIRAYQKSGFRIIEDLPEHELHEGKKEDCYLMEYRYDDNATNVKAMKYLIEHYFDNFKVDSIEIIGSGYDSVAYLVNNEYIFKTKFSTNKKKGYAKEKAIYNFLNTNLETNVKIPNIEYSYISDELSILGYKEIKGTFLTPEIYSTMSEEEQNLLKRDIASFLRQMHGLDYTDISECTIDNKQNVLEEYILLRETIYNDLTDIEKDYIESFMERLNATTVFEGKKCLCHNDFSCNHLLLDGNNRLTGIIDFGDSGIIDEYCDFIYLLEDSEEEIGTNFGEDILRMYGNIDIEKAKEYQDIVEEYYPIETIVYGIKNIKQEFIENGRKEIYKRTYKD
Sequence of UniProt P04756 (whole entry, looked up): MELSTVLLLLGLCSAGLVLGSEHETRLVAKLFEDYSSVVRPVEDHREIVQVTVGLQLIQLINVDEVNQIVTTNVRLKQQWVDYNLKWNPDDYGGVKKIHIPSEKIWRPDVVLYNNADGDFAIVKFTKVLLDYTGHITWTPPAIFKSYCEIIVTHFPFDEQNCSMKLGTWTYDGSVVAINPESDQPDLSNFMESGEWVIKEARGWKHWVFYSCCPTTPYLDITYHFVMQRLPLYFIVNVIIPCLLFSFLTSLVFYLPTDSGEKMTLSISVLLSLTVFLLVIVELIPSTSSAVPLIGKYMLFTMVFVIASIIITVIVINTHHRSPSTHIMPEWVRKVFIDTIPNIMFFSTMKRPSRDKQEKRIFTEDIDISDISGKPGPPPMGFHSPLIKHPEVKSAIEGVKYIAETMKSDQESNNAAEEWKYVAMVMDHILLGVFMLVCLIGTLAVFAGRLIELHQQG
Sequence of UniProt Q16566 (whole entry, looked up): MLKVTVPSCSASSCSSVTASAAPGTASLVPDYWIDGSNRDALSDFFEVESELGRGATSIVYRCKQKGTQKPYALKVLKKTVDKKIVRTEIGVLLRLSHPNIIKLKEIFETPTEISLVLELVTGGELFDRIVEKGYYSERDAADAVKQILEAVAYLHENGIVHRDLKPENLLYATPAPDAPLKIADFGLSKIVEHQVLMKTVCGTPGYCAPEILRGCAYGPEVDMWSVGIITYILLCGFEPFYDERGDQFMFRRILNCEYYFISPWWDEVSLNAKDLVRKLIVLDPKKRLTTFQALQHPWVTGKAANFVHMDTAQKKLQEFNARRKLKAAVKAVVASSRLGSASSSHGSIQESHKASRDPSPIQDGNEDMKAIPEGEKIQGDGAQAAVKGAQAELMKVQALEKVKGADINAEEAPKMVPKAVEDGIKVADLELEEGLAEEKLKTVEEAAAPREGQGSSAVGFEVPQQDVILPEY
Sequence of UniProt Q06520 (whole entry, looked up): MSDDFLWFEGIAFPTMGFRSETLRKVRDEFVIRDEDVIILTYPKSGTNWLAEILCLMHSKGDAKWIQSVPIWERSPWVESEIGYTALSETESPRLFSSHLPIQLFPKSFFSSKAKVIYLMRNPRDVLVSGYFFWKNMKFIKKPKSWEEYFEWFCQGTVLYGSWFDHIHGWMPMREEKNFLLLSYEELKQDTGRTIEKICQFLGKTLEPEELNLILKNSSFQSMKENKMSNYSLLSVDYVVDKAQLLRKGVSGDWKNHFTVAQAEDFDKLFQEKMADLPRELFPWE
Sequence of UniProt Q96PY6 (whole entry, looked up): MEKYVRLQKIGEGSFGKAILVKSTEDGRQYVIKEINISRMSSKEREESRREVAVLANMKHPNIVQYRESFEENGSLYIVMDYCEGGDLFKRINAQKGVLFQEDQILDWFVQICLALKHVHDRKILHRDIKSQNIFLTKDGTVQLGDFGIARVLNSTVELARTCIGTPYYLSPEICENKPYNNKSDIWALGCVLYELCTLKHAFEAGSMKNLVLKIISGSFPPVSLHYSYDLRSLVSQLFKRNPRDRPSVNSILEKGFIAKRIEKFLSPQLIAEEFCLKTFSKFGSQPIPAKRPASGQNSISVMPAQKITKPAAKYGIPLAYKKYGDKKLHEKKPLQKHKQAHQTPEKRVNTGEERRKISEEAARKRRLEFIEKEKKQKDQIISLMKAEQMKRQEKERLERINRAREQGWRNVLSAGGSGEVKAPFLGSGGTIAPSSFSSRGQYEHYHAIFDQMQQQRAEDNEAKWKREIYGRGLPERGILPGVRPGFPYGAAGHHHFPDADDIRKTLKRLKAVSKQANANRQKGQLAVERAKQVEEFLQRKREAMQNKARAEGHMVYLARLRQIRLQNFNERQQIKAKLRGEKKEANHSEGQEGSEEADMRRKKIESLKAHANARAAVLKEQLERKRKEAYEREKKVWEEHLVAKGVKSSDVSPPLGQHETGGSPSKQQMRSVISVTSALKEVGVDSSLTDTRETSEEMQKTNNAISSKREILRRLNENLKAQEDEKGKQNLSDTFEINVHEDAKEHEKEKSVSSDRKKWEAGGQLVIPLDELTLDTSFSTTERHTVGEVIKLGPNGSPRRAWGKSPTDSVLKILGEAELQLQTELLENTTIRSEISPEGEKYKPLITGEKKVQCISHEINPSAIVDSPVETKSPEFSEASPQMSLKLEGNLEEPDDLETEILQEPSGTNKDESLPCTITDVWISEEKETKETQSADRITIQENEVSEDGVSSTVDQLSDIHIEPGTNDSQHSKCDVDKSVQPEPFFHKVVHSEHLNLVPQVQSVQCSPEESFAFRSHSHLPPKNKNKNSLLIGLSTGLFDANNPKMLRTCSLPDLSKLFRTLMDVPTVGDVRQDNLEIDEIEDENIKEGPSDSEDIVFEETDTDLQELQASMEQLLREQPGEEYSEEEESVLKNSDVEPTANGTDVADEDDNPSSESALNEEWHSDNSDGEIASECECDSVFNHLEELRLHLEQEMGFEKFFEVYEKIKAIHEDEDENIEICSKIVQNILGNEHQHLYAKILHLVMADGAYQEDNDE
Sequence of UniProt P02716 (whole entry, looked up): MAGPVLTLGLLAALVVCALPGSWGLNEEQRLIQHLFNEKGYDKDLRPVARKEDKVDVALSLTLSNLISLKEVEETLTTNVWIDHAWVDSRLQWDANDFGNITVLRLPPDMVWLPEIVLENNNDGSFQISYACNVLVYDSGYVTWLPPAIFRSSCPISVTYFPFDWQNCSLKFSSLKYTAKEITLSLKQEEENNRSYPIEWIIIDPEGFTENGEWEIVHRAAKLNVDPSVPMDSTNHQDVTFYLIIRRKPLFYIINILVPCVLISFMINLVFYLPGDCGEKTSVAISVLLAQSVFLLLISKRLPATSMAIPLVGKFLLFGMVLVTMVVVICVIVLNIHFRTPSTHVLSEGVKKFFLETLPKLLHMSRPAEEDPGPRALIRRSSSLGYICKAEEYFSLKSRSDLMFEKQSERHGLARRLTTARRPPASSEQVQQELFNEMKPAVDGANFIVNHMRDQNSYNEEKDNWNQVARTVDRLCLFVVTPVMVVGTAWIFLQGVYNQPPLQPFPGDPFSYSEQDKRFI
Sequence of UniProt O15218 (whole entry, looked up): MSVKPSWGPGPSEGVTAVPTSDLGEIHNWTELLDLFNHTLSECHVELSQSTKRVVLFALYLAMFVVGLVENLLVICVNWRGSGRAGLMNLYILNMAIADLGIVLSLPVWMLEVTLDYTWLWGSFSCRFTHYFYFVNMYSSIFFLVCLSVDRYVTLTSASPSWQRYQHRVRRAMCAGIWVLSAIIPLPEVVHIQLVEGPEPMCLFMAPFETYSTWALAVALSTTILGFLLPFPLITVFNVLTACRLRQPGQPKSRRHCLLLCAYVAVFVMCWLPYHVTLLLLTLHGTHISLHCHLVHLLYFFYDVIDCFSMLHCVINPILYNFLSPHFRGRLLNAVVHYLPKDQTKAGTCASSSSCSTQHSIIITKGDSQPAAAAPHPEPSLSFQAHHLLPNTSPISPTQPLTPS
Sequence of UniProt P00942 (whole entry, unmodified, looked up): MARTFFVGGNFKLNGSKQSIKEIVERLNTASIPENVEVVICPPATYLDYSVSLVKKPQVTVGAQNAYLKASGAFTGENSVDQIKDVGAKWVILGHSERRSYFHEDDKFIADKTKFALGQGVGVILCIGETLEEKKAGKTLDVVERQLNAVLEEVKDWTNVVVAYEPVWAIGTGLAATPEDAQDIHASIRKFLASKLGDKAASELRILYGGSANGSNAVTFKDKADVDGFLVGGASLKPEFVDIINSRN
Sequence of UniProt P21553 (whole entry, unmodified, looked up): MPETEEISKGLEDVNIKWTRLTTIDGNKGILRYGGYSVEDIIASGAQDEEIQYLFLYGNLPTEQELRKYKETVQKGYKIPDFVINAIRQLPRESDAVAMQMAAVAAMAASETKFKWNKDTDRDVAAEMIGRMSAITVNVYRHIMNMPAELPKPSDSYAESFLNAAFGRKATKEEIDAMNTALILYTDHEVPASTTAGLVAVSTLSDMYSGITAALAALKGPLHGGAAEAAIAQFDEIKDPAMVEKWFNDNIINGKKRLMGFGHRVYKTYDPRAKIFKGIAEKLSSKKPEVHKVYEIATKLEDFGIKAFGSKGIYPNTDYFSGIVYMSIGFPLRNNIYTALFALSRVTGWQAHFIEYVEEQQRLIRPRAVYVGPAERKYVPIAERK

COc1cc2c(Oc3ccc4[nH]c(C)cc4c3F)ccnc2cc1OCC1(N)CC1 — grade 1 or 2 Triglyceride elevation (paediatric recurrent refractory sarcoma; 8 mg/kg): 20%
CN(C(=O)n1cnc(-c2ccc[n+]([O-])c2)c1)C1CCCCC1 — inhibition (CAMK4 (Homo sapiens, UniProt Q16566); enzyme activity; 10 µM, added: autocamtide-2): -2%
CCCCN1CCC(COC(=O)c2ccc(N)c(O[11CH3])c2)CC1 — BPND (PET SRTM; rhesus monkey, frontal cortex; baseline, unit not given; relative to: cerebellum): 0.31 ± 0.1
COc1ncccc1-c1cnn2ccc(N3CCN(C(=O)OC(C)C)CC3)nc12 — remaining binding (Cyclin-dependent kinase 4, with cyclin D3 (CDK4, Homo sapiens, UniProt P11802); KINOMEscan binding; 1 µM; relative to: untreated control): 100%
CCCCCCCC[C@H]1O[C@H]1C/C=C/C=C/[C@H](O)CC(=O)NC1=C[C@](C)(CC)OC1=O — binding stoichiometry (Na(+)-translocating NADH-quinone reductase subunit B, whole Na+-NQR complex (nqrB, Vibrio cholerae serotype O1, UniProt Q9KPS2, G141A); ITC; concentration not given, 20 °C, NqrB-G141A mutant): 0.61 ± 0.1
CC(C)C[C@H](NC(=O)C[C@H](O)[C@H](CC(C)C)NC(=O)[C@H](Cc1c[nH]cn1)NC(=O)CNC(=O)[C@@H](NC(=O)[C@H](C)NC(=O)[C@H](Cc1c[nH]c2ccccc12)NC(=O)[C@H](CCC(N)=O)NC(=O)[C@@H](Cc1ccccc1)NC(=O)CCNC(=O)CCSc1nnc(NCCC(=O)NCCC(=O)NCCCC[C@H](NC(=O)N[C@@H](CCC(=O)O)C(=O)O)C(=O)O)c2c1CCC1C(CC2)C1COC(=O)NCCNC(=O)CC[C@H](C(=O)O)N1CCN(CC(=O)O)CCN(CC(=O)O)CC1)C(C)C)C(N)=O (stereo partly drawn) [gallium-68 labelled] — tissue uptake (athymic NMRI nude mouse, lung; intravenous, 533 pmol, 2 h): 0.28 %ID/g
CC(=O)SCCNC(=O)CCNC(=O)[C@H](O)C(C)(C)COP(=O)(O)OP(=O)(O)OC[C@H]1O[C@@H](n2cnc3c(N)ncnc32)[C@H](O)[C@@H]1OP(=O)(O)O — kcat (gltA (Thermoplasma acidophilum, UniProt P21553, D318G); steady-state turnover, substrate; 100 µM, pH 8, 20 °C, added: oxaloacetate 400 µM): 0.0015 s⁻¹
C[C@@H](O)[C@H](NC(=O)[C@@H]1CSSC[C@H](NC(=O)[C@@H](Cc2ccccc2)NC(=O)CN2CCN(CC(=O)[O-])CCN(CC(=O)[O-])CCN(CC(=O)[O-])CC2)C(=O)N[C@@H](Cc2ccc(O)cc2)C(=O)N[C@H](Cc2c[nH]c3ccccc23)C(=O)N[C@@H](CCCCN)C(=O)N[C@@H]([C@@H](C)O)C(=O)N1)C(=O)O.[177Lu+3] — retention (MEC1 treated with 200 µM zebularine; gamma counter; 120 min efflux after 2 h loading): 33.1%
COc1cc(N)c(Cl)cc1C(=O)NC1CN2CCC1CC2 (stereo not drawn) — log2 fold change (G-protein coupled receptor 182 (GPR182, Homo sapiens, UniProt O15218); β-arrestin recruitment, TANGO luminescence, item: GPR182; concentration not given; relative to: basal luminescence): 0.352
C[C@@H](NC(=O)[C@@H](N)Cc1ccc(O)cc1)C(=O)NCC(=O)N(C)[C@@H](Cc1ccccc1)C(=O)NCCO — GTPγS binding (Oprm1 (Mus musculus, UniProt P42866); agonist; mouse spinal cord membranes; 316 nM; relative to: basal binding): -0.3% and -2.4% and -0.65% and 2.54% and 2.11% and -3.49% and 1.22% and 0.55%
[2H]c1c([2H])c([C@]2([2H])CCCN2C(=O)C(C)(C)Oc2ccc3cn[nH]c3c2)c([2H])c([2H])c1C([2H])([2H])[2H] — remaining binding (Myosin-IIIa (MYO3A, Homo sapiens, UniProt Q8NEV4); KINOMEscan; 1 µM; relative to: DMSO control): 78%
CO[C@H]1C[C@@H]2CC[C@@H](C)[C@@](O)(O2)C(=O)C(=O)N2CCCC[C@H]2C(=O)O[C@H]([C@H](C)C[C@@H]2CC[C@@H](OC(=O)NCCOCCOCCOCCOCCOCCOCCOCCOCCC(=O)N3CCc4cc(Cn5nc(-c6ccc7oc(N)nc7c6)c6c(N)ncnc65)ccc4C3)[C@H](OC)C2)C[C@@H](O)[C@H](C)/C=C(\C)[C@@H](O)[C@@H](OC)C(=O)[C@H](C)C[C@H](C)/C=C/C=C/C=C/1C — TRAE incidence (phase 1 dose escalation, item: fatigue; advanced solid tumour patients; intravenous, 8 mg weekly, grade ≥3): 0%
Oc1c(Cl)cc(-c2ccccc2)c(F)c1Cl — Vmax (SULT2A1 (Homo sapiens, UniProt Q06520); substrate; pH 7.0, 37 °C, added: PAPS 200 µM): 33.2 ± 1.7 nmol/min/mg
COc1ccc(N2C(=O)N(c3c(C)cccc3Cl)Cc3cnc(Nc4ccc(C5CCN(C)CC5)cc4OC)nc32)nc1 — inhibition (EPHA4 (Homo sapiens, UniProt P54764); kinase activity; 0.5 µM): 98%
C[N+]1(C)CCN(c2cccc(Cl)c2)CC1.[I-] — response relative to ACh (Nicotinic acetylcholine receptor alpha1/beta1/epsilon/delta (Mus musculus, UniProt P02716+P04756+P09690+P20782); peak current, agonist, two-electrode voltage clamp; Xenopus oocytes; 30 µM; relative to: ACh 30 µM): 47%
CCCCC/C=C\C/C=C\C/C=C\C/C=C\CCCC(=O)NCCO — maximal open probability (Trpv1 (Mus musculus, UniProt Q704Y3, E571S); ion current, agonist, whole-cell patch clamp; E571S; relative to: 3 mM 2-APB): 0.19 ± 0.07
Cc1nc2cc(CCOCCCCCc3ccccc3)ccc2n1COCC[Si](C)(C)C — Emax (ATP2A2 (Sus scrofa, UniProt P11607); ATPase Vmax increase, activator; pig microsomes; 0.1 to 50 µM; relative to: vehicle): ~18%
O=C(O)COP(=O)(O)O — Ki ratio (TPI1 (Saccharomyces cerevisiae, UniProt P00942, Y208F); enzyme activity, competitive inhibitor, GPDH/NADH-coupled; pH 8.9, 25 °C, ionic strength 0.1 NaCl, added: glyceraldehyde 3-phosphate substrate; relative to: mutant over wild type): 15
C[C@H]1CN(c2n[nH]c3nc(N[C@H]4CC[C@H](NS(=O)(=O)CCC(F)(F)F)CC4)ncc23)CCO1 — relative abundance (NEK1 (Homo sapiens, UniProt Q96PY6); inhibitor, Kinobeads competition profiling; 20 µM; relative to: vehicle): 1.1
O=C(C1CCC(F)(F)CC1)N1CC(=O)N2CCc3ccccc3[C@@H]2C1 — fold change in EC50 (TRPM channel TRPM_PZQ (Schistosoma mansoni, UniProt A0A5K4F0X5); agonist; HEK293 cells transfected; relative to: (R)-praziquantel): ~5 fold
CC[C@H](C)[C@H](NC(=O)CNC(=O)[C@@H](N)CCCCN)C(=O)N[C@@H](CC(C)C)C(=O)N[C@@H](CCCCN)C(=O)N[C@@H](CCCNC(=N)N)C(=O)N[C@@H](CCC(=O)O)C(=O)N[C@@H](CCCCN)C(=O)N[C@@H](CCCNC(=N)N)C(=O)N[C@@H](CC(C)C)C(=O)N[C@@H](CCCNC(=N)N)C(=O)N[C@@H](CCCNC(=N)N)C(=O)N[C@@H](CCCCN)C(=O)N[C@@H](CC(N)=O)C(=O)N[C@H](C(=O)N[C@@H](Cc1c[nH]cn1)C(=O)N[C@@H](Cc1c[nH]c2ccccc12)C(=O)N1CCC[C@H]1C(=O)N[C@@H](CCC(=O)O)C(=O)N[C@@H](CCC(=O)O)C(=O)NCC(=O)N[C@@H](CCCCN)C(=O)N[C@@H](CC(C)C)C(=O)N[C@@H](CCCNC(=N)N)C(=O)N[C@@H](CCC(=O)O)C(=O)N[C@@H](Cc1ccccc1)C(=O)N[C@@H](Cc1ccccc1)C(=O)N[C@@H](Cc1ccccc1)C(=O)N[C@@H](Cc1ccccc1)C(=O)N[C@@H](CCC(=O)O)C(=O)N[C@@H](CC(C)C)C(=O)N[C@@H](CC(=O)O)C(=O)N[C@@H](CCC(=O)O)C(=O)N[C@@H](C)C(=O)N[C@@H](CCC(=O)O)C(=O)N[C@@H](CCCNC(=N)N)C(=O)N[C@H](C(=O)N[C@@H](CC(N)=O)C(=O)N[C@H](C(=O)O)C(C)C)C(C)C)C(C)C — log2 fold change (HeLa and HEK-293T cells; phosphatase bead binding, competitive inhibitor, PIB pulldown iBAQ LC-MS/MS, item: SIKE1; concentration not given; relative to: untreated control): 0.61
Clc1cccc(COc2ccccc2CNCc2ccncc2)c1 — highest concentration without inhibition (aacA-aphD, AAC(6')-Ie domain (Staphylococcus aureus, UniProt P0A0C1); neomycin acetylation, inhibitor; added: neomycin): > 200 µM
CC[C@H](C)[C@H](NC(=O)CNC(=O)[C@@H](N)CCCCN)C(=O)N[C@@H](CC(C)C)C(=O)N[C@@H](CCCCN)C(=O)N[C@@H](CCCNC(=N)N)C(=O)N[C@@H](CCC(=O)O)C(=O)N[C@@H](CCCCN)C(=O)N[C@@H](CCCNC(=N)N)C(=O)N[C@@H](CC(C)C)C(=O)N[C@@H](CCCNC(=N)N)C(=O)N[C@@H](CCCNC(=N)N)C(=O)N[C@@H](CCCCN)C(=O)N[C@@H](CC(N)=O)C(=O)N[C@H](C(=O)N[C@@H](Cc1c[nH]cn1)C(=O)N[C@@H](Cc1c[nH]c2ccccc12)C(=O)N1CCC[C@H]1C(=O)N[C@@H](CCC(=O)O)C(=O)N[C@@H](CCC(=O)O)C(=O)NCC(=O)N[C@@H](CCCCN)C(=O)N[C@@H](CC(C)C)C(=O)N[C@@H](CCCNC(=N)N)C(=O)N[C@@H](CCC(=O)O)C(=O)N[C@@H](Cc1ccc(O)cc1)C(=O)N[C@@H](Cc1ccccc1)C(=O)N[C@@H](Cc1ccc(O)cc1)C(=O)N[C@@H](Cc1ccccc1)C(=O)N[C@@H](CCC(=O)O)C(=O)N[C@@H](CC(C)C)C(=O)N[C@@H](CC(=O)O)C(=O)N[C@@H](CCC(=O)O)C(=O)N[C@@H](C)C(=O)N[C@@H](CCC(=O)O)C(=O)N[C@@H](CCCNC(=N)N)C(=O)N[C@H](C(=O)N[C@@H](CC(N)=O)C(=O)N[C@H](C(=O)O)C(C)C)C(C)C)C(C)C — log2 fold change (HeLa and HEK-293T cells; phosphatase bead binding, competitive inhibitor, PIB pulldown iBAQ LC-MS/MS, item: PPP4R4; concentration not given; relative to: untreated control): -0.08
COc1ccc(F)cc1C(=O)NCc1ccc(-c2nn([C@@H](C)C(F)(F)F)c(N)c2C(N)=O)cc1 — selectivity ratio (CSK (Homo sapiens, UniProt P41240); target engagement, NanoBRET; HEK293; relative to: CSK over BTK): > 7600
